Assay results gathered from unrelated publications.
A part holds a random share of what one study measured. Substitutions count along the parent as printed.

Study 1
Target: ABI1, truncated, D143A, DHFR fusion (Arabidopsis thaliana)
Method: DHFR PCA, deep sequencing
Sample: yeast
Notes: methotrexate growth selection, single substitutions
Together with: (+)-ABA 0.11 µM
Reference: wild-type fitted maximum
Direction: higher = stronger binding
Parent: PYL1, truncated, DHFR fusion (Arabidopsis thaliana); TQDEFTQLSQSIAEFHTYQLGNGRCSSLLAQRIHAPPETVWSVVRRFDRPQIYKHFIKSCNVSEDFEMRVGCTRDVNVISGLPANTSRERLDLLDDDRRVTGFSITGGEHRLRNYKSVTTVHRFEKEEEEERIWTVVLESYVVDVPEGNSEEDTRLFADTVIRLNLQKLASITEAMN
Change | relative binding score [%]
K58W | 0.4
H110E | 50
P37N | -3.16
T101D | -9.09
A84N | 35.5
T173M | 4.36
T73C | 24.1
R69C | 18.9
G21W | 6.96
L91A | -0.118
K168C | 10.7
D3I | 17.6
F15E | -1.04
I33S | 2.04
E151V | 49.1

Study 2
Target: CCNE1, cyclin fold, Cln2 fusion (human)
Method: yeast growth competition, sequencing
Sample: yeast
Notes: strong parent motif
Reference: not given
Direction: higher = stronger binding
Parent: INSM1 docking peptide (human); PKAIRKLHFEDEV; partner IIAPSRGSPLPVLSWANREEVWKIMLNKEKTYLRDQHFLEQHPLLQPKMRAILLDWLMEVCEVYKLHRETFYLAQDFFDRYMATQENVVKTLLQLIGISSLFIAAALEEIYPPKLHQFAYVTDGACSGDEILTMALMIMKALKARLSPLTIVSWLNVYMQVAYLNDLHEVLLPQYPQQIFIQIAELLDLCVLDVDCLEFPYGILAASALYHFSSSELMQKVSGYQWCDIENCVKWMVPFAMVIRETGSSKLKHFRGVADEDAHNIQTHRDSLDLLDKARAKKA
Change | normalised enrichment score
F9M | 0.406
I4W | 1.01
E12F | 3.97
F9S | 0.0519
K2L | 3.42
H8M | 4.7
L7S | 0.0447
R5W | 0.149
D11V | 3.07
K2M | 3.69
R5H | 0.22
H8K | 4.44
F9A | -0.622
D11F | 4.26
E10C | 3.15
K6Y | 2.82
R5Y | 0.469

Study 3
Target: Sal-like protein 4, full length isoform A (SALL4, Homo sapiens, UniProt Q9UJQ4, residues 1-1053)
Sequence of UniProt Q9UJQ4 (whole entry, looked up): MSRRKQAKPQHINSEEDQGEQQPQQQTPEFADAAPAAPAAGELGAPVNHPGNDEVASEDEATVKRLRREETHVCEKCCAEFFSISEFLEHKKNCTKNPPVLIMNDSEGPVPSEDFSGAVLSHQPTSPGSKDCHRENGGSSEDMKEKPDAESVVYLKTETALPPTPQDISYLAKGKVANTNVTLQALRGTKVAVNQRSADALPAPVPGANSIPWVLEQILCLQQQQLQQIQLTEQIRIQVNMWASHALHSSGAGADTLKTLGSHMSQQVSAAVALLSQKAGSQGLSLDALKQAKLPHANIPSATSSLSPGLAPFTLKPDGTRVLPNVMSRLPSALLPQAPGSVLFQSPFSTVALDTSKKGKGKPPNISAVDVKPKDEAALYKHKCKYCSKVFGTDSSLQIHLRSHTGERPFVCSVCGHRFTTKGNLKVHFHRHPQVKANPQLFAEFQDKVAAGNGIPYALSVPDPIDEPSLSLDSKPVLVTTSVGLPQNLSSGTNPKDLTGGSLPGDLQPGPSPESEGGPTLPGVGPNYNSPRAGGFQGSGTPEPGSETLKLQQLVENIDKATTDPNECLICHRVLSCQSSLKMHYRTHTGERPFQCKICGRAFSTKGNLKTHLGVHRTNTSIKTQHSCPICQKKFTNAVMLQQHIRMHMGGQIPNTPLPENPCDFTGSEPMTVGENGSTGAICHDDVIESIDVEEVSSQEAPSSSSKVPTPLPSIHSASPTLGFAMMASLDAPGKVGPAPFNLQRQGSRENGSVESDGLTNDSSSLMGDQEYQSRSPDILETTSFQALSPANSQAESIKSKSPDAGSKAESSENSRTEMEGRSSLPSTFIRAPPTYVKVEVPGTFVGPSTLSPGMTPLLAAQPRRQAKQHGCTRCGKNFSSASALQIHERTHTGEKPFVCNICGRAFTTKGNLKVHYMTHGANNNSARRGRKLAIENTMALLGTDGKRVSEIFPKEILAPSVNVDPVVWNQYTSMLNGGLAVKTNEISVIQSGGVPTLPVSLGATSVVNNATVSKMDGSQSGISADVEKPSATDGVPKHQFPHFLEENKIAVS
Method: universal PBM
Form: double-stranded DNA, one strand shown
Sample: in vitro
Tested at: 600 nM
Notes: 8-mer, flanks averaged, mean of replicates
Direction: higher = stronger binding
Strand | E-score
ACTGGAAG | -0.0858
ATCCCAAA | 0.108
AACGATTC | 0.107
AAGAGCAA | 0.00534
CCCTGTAC | -0.243
ATGCGTAC | 0.184
GTAAAGTA | 0.212
CTGGCACC | -0.224
AATAAGGT | 0.157
GCCGACAA | -0.149
CAAAATTA | 0.363
AACTTCGT | 0.00139
ATTCCCCG | 0.00717
GGAGCGGA | -0.315
GCGTACGC | -0.112
ACCGTGGG | -0.373
CGCTAGAC | -0.149
CAGAGTCA | -0.142
TCAGCGGA | -0.175

Study 4
Target: RNA binding protein fox-1 homolog 2, RRM domain, GST-SBP tag (RBFOX2, Homo sapiens, UniProt O43251-10, residues 100-194)
Method: RNA Bind-n-Seq
Form: RNA
Sample: in vitro
Tested at: 365 nM
Notes: natural RNA segment, single round, ends assumed
Reference: no-protein control
Direction: higher = stronger binding
Shared flanks, not repeated: GGGAGUUCUACAGUCCGACGAUC … UGGAAUUCUCGGGUGCCAA
Target sequence (chain): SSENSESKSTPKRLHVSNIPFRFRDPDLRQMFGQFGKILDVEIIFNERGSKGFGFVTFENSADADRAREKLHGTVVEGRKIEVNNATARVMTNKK
Strand | RBNS enrichment (R)
AUAUAGCUUAUUUUCUUCAUUUACUAGAGGAGGAAAAAUAGAACCAAAAAAUGCAUGAACUCCUGCUUUUCAAUCUGAUUACCUCAAACUGAAAAGCAGGUGAAAGGAGG | 0.975
UAGUUUAGUAAACUGGCCCAUUUGGGCUGAAGAACUUGUGUGGAAAGAGUCCAAACAACUCAUCAUUUUCUUCUCUGCAUAUCUCACCACAAUUGUAGGAUUUUUUUUUC | 0.549
UCACUUUACCAAUUAAGAGUUAGGCCAGAUAAGUGAAAUUUAACUUAAGGGCACACAGCUAAUAAGUAAUAGGCCUAAACUGGAUUUCCUUAUUCCAAAUCCUGUCUUUU | 0.421
CAUGGGCCCAGCCCCAAAGGGCAGUGAAUGGCCUUCUCUGAAACCCUGCGUCAAGCAGUGGGAGAGGGCAGUGCCCGGUGCCCUGGUGCUCCCAGCUGCCCUCCUGCUUC | 0.207
AGGGAGCUACCCAGCUUCCUGUGGUACCAAGGAGUUAUUUUGGAUGAUUAGAAGCACAGAAUGAUCAGGCCUUUAGAGCGAUGGAAUGGCCAUUGUCAUAGCACAGAGAU | 1.09
AAGUUCCCGUUGAGGAGGAGGCCCUUCAAUUGAGACUGUCCAGAGCUGUGACAAUGCACCAUAUUGAAGGGGUUAUCCUGUUAAUGCUCAUUUUUUCCUCUAAUUCAUAA | 0.529
UAAAGCCAGAUUUUAGAGGUUUGAUAUGUUUGGUCUCAGGAGCUCAAAAGAAGUAGCUUUUUCCAGUGUCUUUUGUGUUACUGAUUUGGGAAAUGUUGAAAGAUUGGACA | 0.787
GCUUCACACAGCUCCCCUGCUUCUAAAGGAUAAGGUACUGUAGCCUUGGUCCUGGGGACCACCUGCCUGGGGCAGUGGACAUCCUAACUAAACAGGCUUCUGGCAGUAGC | 0.486

Study 5
Target: Ras GTPase-activating protein-binding protein 1, full length (G3BP1, Homo sapiens, UniProt Q13283)
Sequence of UniProt Q13283 (whole entry, looked up): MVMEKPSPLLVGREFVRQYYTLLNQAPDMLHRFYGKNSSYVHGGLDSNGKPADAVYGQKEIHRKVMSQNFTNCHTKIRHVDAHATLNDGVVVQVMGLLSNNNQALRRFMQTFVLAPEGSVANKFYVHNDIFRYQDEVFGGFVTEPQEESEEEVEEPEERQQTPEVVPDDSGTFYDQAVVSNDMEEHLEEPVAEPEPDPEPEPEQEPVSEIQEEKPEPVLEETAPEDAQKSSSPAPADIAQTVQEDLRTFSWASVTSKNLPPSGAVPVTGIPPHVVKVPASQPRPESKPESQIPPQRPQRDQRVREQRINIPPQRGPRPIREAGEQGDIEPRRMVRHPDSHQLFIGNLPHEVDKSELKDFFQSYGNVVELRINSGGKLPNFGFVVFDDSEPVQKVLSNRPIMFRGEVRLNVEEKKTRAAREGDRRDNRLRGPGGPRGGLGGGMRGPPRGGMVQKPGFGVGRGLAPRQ
Method: RNA Bind-n-Seq
Form: RNA
Sample: in vitro
Tested at: 200 nM
Notes: whole 134-nt RNA, ends assumed
Together with: 150 mM KCl
Reference: input library
Direction: higher = stronger binding
Shared flanks, not repeated: GGGAGUUCUACAGUCCGACGAUC … UGGAAUUCUCGGGUGUCAAGG
Strand | log2 enrichment
CAAGUCCUGUGCUACACAUCGUAUGUACCGAAUCGGGGCCCGGGGCCCGGCCCGGAAAGUAUUAUGUUACGCCGUUCGGAUCUGCACUUC | -0.59
CAAGUCCUGUGCUACACAUCGUAUGUACCGAAUCGGGUUUGGGAGGGAAAAAGGGAAAGUAUUAUGUUACGCCGUUCGGAUCUGCACUUC | 0.658
UCUGGACAUGCAGGUGGACCAGUCAGUGCCAGAGUAAGUUGUUGUUUUCUUAAAAGAAAAAAAAAAAUGUAAAAUCAUCUAACCCUAACC | -0.00439
GCAGGAAGUAAAAACAAAUGGAAAUGCUUCGGAUAGUGGCAGGGGUGGGGGUUGCUAAGGAAAGAAAGGGAUGGGAGUGGGUAAAGAGUU | 0.705
AAGUCCUGUGCUACACAUCGUAUGUACCGAAUCGGGCCCCGGGCCCCGGGGCCCCGGAAAGUAUUAUGUUACGCCGUUCGGAUCUGCACU | 0.874
GAUGAUUACUAUGGUUAUGAUUAUCACGACUAUCGUGGAGGCUAUGAAGAUCCCUACUACGGCUAUGAUGAUGGCUAUGCAGUAAGAGGA | -1.4
CAAGUCCUGUGCUACACAUCGUAUGUACCGAAUCGGUUUUUGGAAAGGUUUUUGGAAAGUAUUAUGUUACGCCGUUCGGAUCUGCACUUC | -1.06
AAGUCCUGUGCUACACAUCGUAUGUACCGAAUCGGGUUUGGGGUUUGGGGUUUGGGAAAGUAUUAUGUUACGCCGUUCGGAUCUGCACUU | 0.176
ACCAUGCAGGUGGGCAUCUUUGGGAAGUGGGGCAAGGGGGGGAUAGGGAGCGGGGUAACACUUUGGGAACAGGUGGUCCCAGGUCGUUUC | 1.27

For quick reference, copied from above (study 2):
Change | normalised enrichment score
R5Y | 0.469
K2M | 3.69
L7S | 0.0447
F9S | 0.0519
K6Y | 2.82
D11V | 3.07
